Results collected from several papers.
Parts stem from different laboratories: compare values within a part only. Changes are numbered by the printed parent chain.

Sample 1 — target: CCNB1, cyclin fold, Cln2 fusion (human); method: yeast growth competition, sequencing; medium: yeast; notes: weak parent motif; baseline: not given; reading: higher = stronger binding
Parent: CDC6 docking peptide (human); TLKGRRLVFDNQL
Substitution	normalised enrichment score
TLKGRWLVFDNQL [R6W]	-0.738
TLKGRRLVFCNQL [D10C]	0.799
TLKGRGLVFDNQL [R6G]	0.00462
TLKKRRLVFDNQL [G4K]	-0.449
TLKGRRLVFDCQL [N11C]	0.937
TLKGRRLVLDNQL [F9L]	0.425

Sample 2 — method: protein binding microarray; form: double-stranded DNA, one strand shown; medium: in vitro; tested at: not given; baseline: not given; reading: higher = stronger binding
Target: Histone acetyltransferase KAT6A, both winged helices, GST fusion (KAT6A, Homo sapiens, UniProt Q92794, residues 1-181)
Notes: 8-mer, flanks averaged, mean of 2 arrays, mostly near background
Residues (chain): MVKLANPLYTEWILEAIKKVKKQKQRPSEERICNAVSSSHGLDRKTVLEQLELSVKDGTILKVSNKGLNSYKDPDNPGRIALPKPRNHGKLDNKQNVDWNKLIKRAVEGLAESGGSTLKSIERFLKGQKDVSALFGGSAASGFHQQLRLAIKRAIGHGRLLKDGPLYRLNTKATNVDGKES
Sequence	E-score
CTCCAATC	-0.102
GTGAGTCA	-0.116
TCAGATGA	-0.166
GGCGGAAA	0.158

Sample 3 — method: RNA Bind-n-Seq; form: RNA; medium: in vitro; tested at: 200 nM; notes: whole 134-nt RNA, ends assumed; added: 150 mM KCl; baseline: input library; reading: higher = stronger binding
Target: Fragile X messenger ribonucleoprotein 1, C-terminal low-complexity region (Fmr1, Mus musculus, UniProt P35922)
Sequence	log2 enrichment
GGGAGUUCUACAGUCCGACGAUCCCUGUGCUACACAUCGUAUGUACCGAAUCGGUUUUUUGGGGUUUUUUGGGUUUUUUGGGGAAAGUAUUAUGUUACGCCGUUCGGAUCUGCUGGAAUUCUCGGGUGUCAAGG	-0.543
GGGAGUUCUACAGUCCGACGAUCGUCCUGUGCUACACAUCGUAUGUACCGAAUCAAACCCCCAAACCCCCAAACCCCCAAAAAAGUAUUAUGUUACGCCGUUCGGAUCUGCACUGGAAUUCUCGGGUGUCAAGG	-0.377
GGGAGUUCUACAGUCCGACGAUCUAAGGCCAGUAAAAUUUUAGUACCUGGAGGUUUGACUCUAAUUUUUGCACUGAUGGUGCCAAAGGGCCCUGAGUCAAAAGGAUAGCCAAGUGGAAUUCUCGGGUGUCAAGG	-1.82
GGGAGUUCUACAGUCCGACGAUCUGGGAGGUGGAUUUUGUUUGUUUUUUUAGCUCAUUUCCAGGGGUGGGAAUUUUUUUUUAAUAUGUGUCAUGAAUAAAGUUGUUUUUGAAAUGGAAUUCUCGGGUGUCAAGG	0.39
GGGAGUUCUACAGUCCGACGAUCCAAGUCCUGUGCUACACAUCGUAUGUACCGAAUCGGGCCCGGGGCCCGGGCCCGGGAAAGUAUUAUGUUACGCCGUUCGGAUCUGCACUUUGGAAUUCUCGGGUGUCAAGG	-1.04

Single results of other studies
Substance	target	assay	system	setting	scale	quantity	result
PhoQ, residues 284 288 289 292 302 303 SCEHLI	PhoP, residues 12 14 15 18 19 GQAIL (Escherichia coli, UniProt P23836)	Sort-seq, refers to: YFP reporter	E. coli	PhoQ-PhoP variant library, added: 10 µM Mg2+	baseline: high Mg2+ state, higher = stronger signaling	fold induction	23.8

Some of these lines once more (sample 1):
Substitution	normalised enrichment score
TLKGRRLVFDCQL [N11C]	0.937
TLKGRRLVLDNQL [F9L]	0.425
